# Assay results of several laboratories.
# Values joined by “and” are separate records of one study, mostly repeats; a detail may differ.
# Rab GDP dissociation inhibitor beta with Rab1A: Rab GDP dissociation inhibitor beta, with Rab1A (Homo sapiens, UniProt P50395)
# Voltage-dependent P/Q-type calcium channel subunit alpha-1A: Voltage-dependent P/Q-type calcium channel subunit alpha-1A (Homo sapiens, UniProt O00555)
# UCHL1: Ubiquitin carboxyl-terminal hydrolase isozyme L1 (UCHL1, Homo sapiens, UniProt P09936)
SMILES,tested on,assay,system,conditions,scale,measurement,result
Cc1cc(Oc2ncccc2CN2CCN(c3ccccc3)CC2)ccc1-c1c(C)c(=O)[nH]c(=O)n1C,"ADRA2C (Homo sapiens, UniProt P18825)","cAMP production, agonist, GloSensor",cells overexpressing ADRA2C,"concentration not given, added: isoproterenol",,inhibition,no inhibition
Cc1c(-c2ccccc2)oc2c(C(=O)O)cccc2c1=O,"Anoctamin-1 (Ano1, Mus musculus, UniProt Q8BHY3)","ion current, inhibitor",HEK293 transfected,"30 µM, at +80 mV",,inhibition,~15% and 15%
COC(=O)c1c(NC(=O)Cn2cnc([N+](=O)[O-])n2)sc2c1CCC(C)C2 (stereo not shown),Trypanosoma cruzi,"reporter translation, Renilla luciferase mRNA translation",cell-free extract,40 µM,baseline: DMSO,inhibition,-4.1%
C#CC[C@]1(O)C[C@@H]2c3cc(OCc4cc(C)cc(C)c4)c(OCc4cc(C)cc(C)c4)cc3CCN2[C@@H](C)C1,Rab GDP dissociation inhibitor beta with Rab1A,"GDI2-Rab1A interaction, NanoLuc complementation",,6.25 µM,,inhibition,82.2%
CCC(C)(C)C(=O)O[C@H]1C[C@@H](C)C=C2C=C[C@H](C)[C@H](CC[C@@H]3C[C@@H](O)CC(=O)O3)[C@H]21,Voltage-dependent P/Q-type calcium channel subunit alpha-1A,"ion current, antagonist",HEK293,10 µM,,inhibition,94%
OCCCN1CC[C@@H]2C[C@H]1c1cc(-c3ccc(C(F)(F)F)cc3)ccc12,"CHRM5 (Homo sapiens, UniProt P08912)","radioligand binding, PDSP competition binding",,10 µM,,inhibition,< 50%
CC[C@@H]1[C@H](F)C(=O)N[C@@H]1COc1nccc2cc(C(N)=O)c(OC)cc12,"MAP3K4 (Homo sapiens, UniProt Q9Y6R4)","ATP-site probe binding, ActivX profiling",THP-1 cell lysate,"0.01 mM, Lys2 site",,inhibition,18.5%
CC(C)NCC(O)COc1cccc2ccccc12 (stereo not shown),Voltage-dependent P/Q-type calcium channel subunit alpha-1A,"ion current, antagonist",HEK293,10 µM,,inhibition,44%
C=CC(=O)Nc1ccc(CCn2cc(C[C@@]3(O)C[C@@H]4c5cc(OCc6cc(C)cc(C)c6)c(OCc6cc(C)cc(C)c6)cc5CCN4[C@@H](C)C3)nn2)cc1,Rab GDP dissociation inhibitor beta with Rab1A,"GDI2-Rab1A interaction, NanoLuc complementation",,6.25 µM,,inhibition,92.4%
Cc1ccccc1NC(=O)C(C#N)=Cc1c(Cl)nc2ccccn12,UCHL1,"covalent, intact protein LC-MS",,12.5 µM,,labelling,11.7%
CCN1CCN(Cc2ccc(NC(=O)c3ccc(C)c(/C=C/c4cnc5[nH]ccc5c4OC)c3)cc2C(F)(F)F)CC1,"ATR (Homo sapiens, UniProt Q13535)",,A-375,5 µM,,inhibition,-19.1%
Nc1c(Br)cc(Br)cc1CN[C@H]1CC[C@H](O)CC1,Voltage-dependent P/Q-type calcium channel subunit alpha-1A,"ion current, antagonist",HEK293,10 µM,,inhibition,31%
Cc1nn(-c2nc3c(F)cc(F)cc3s2)c(O)c1C(c1ccc(C(F)(F)F)cc1)c1c(C)nn(-c2nc3c(F)cc(F)cc3s2)c1O,"CGAS (Homo sapiens, UniProt Q8N884)","enzyme activity, inhibitor, pyrophosphatase-coupled",,"50 µM, 1.5 h, added: HT-DNA",,inhibition,93.1%
COc1cc(-c2cc(C(C)=O)n3ccccc23)cc(OC)c1Cn1ccnc1,"Bromodomain-containing protein 4, BD2 (BRD4, Homo sapiens, UniProt O60885)",,,1 µM,,inhibition,-3.74%
COc1ccc2cc(C=C(C#N)C(=O)Nc3nccs3)ccc2c1,UCHL1,"covalent, intact protein LC-MS",,12.5 µM,,labelling,16.7%
CNCCC(Oc1ccc(C(F)(F)F)cc1)c1ccccc1.Cl (stereo not shown),Voltage-dependent P/Q-type calcium channel subunit alpha-1A,"ion current, antagonist",,3 µM,,inhibition,31%
Cc1cc(-c2ccnc3[nH]cc(F)c23)cc(F)c1[C@@]1(O)[C@H](C)CN(C2CCS(=O)(=O)CC2)C[C@@H]1C,"STK38L (Homo sapiens, UniProt Q9Y2H1)","ATP probe binding, KiNativ, refers to: Lys2 site",HEK293T cell lysate,0.1 µM,,inhibition,0.3%
COc1ccc2c(c1)c(CC(=O)O)c(C)n2C(=O)c1ccc(Cl)cc1,Voltage-dependent P/Q-type calcium channel subunit alpha-1A,"ion current, antagonist",HEK293,3 µM,,inhibition,-1%
Cc1ccc(C(=O)Nc2ccc3ccccc3c2)o1,"Voltage-gated potassium channel KCNC4 (KCNC4, Homo sapiens, UniProt Q03721)","ion current, inhibitor, whole-cell patch clamp",,10 µM,,inhibition,0% and 2.76% and 2.15%
